Results collected from several papers.
Protocols differ between the studies behind these lines. “And” joins repeats or separate records; there may be more than shown. ± gives the spread as reported.
dcp2 with Dcp1: mRNA decapping complex subunit 2, with Dcp1 (dcp2, Schizosaccharomyces pombe, UniProt O13828)
Sequence of UniProt O13828 (whole entry, looked up): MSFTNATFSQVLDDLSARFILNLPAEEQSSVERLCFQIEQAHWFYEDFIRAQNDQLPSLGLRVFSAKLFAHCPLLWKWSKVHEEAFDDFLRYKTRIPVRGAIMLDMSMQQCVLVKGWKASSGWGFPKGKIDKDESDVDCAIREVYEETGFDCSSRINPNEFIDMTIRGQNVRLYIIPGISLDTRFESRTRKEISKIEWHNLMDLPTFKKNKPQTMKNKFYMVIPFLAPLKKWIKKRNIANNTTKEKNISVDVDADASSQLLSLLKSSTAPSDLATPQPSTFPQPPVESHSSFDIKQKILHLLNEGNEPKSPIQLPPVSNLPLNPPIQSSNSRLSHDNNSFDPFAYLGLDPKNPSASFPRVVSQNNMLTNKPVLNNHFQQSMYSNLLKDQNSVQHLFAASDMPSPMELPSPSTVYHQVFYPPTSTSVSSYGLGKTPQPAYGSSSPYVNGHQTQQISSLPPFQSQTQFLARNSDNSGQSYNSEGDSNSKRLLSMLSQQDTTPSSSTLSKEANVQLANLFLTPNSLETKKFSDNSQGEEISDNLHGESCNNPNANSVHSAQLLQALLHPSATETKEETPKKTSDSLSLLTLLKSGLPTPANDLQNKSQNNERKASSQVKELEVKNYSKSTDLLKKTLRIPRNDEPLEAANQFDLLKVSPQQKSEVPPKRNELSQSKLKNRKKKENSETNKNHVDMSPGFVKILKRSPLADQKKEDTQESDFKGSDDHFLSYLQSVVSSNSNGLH
ache: Acetylcholinesterase (ache, Electrophorus electricus, UniProt O42275)
Sequence of UniProt O42275 (whole entry, looked up): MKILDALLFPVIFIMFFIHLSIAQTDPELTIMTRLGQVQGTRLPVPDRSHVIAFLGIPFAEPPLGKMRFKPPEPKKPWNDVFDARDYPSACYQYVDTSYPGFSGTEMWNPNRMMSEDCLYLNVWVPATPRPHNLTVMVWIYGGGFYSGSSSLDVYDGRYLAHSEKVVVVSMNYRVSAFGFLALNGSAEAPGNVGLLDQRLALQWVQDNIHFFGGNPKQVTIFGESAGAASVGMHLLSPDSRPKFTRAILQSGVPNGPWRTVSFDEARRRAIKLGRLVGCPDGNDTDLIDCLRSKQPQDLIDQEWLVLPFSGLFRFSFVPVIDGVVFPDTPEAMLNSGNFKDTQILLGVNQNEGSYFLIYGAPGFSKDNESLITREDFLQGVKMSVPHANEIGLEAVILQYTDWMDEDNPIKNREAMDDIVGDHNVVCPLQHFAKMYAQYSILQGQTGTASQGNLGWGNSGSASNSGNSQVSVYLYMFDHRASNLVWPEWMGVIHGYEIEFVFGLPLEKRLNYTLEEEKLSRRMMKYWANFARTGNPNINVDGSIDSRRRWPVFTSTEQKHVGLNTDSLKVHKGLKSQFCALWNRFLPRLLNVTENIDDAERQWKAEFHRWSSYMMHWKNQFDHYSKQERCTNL
HTR3A: 5-hydroxytryptamine receptor 3A (HTR3A, Homo sapiens, UniProt P46098)
Sequence of UniProt Q9ULW8 (whole entry, looked up): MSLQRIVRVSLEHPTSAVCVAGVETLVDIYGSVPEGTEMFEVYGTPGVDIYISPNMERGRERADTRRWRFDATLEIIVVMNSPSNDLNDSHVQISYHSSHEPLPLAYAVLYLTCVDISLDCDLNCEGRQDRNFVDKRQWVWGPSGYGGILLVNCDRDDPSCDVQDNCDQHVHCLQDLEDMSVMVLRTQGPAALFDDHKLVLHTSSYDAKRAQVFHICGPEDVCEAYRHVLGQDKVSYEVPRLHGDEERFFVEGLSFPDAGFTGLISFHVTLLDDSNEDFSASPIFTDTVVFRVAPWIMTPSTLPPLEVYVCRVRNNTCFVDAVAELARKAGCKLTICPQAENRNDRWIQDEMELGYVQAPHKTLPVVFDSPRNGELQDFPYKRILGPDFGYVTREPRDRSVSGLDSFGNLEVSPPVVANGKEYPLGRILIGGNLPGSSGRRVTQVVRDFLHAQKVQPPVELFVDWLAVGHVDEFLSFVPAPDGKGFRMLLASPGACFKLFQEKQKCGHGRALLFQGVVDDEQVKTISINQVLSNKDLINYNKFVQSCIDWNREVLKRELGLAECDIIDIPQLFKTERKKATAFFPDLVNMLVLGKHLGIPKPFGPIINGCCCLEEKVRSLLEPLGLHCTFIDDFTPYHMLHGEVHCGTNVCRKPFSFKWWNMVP
Sequence of UniProt P46098 (whole entry, looked up): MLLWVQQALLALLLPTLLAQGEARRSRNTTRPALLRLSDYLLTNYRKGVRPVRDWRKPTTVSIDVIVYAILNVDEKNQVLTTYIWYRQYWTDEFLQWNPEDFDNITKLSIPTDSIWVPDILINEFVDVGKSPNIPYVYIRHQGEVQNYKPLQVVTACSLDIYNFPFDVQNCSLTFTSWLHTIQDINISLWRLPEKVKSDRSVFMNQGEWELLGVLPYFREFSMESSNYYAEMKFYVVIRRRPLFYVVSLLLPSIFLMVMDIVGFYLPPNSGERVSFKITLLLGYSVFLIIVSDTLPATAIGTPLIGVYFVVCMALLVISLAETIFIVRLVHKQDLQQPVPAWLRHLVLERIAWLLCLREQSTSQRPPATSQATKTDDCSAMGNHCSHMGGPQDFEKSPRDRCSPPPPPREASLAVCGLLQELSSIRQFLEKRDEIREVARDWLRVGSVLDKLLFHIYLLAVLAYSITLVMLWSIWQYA
Sequence of UniProt Q96BR1 (whole entry, looked up): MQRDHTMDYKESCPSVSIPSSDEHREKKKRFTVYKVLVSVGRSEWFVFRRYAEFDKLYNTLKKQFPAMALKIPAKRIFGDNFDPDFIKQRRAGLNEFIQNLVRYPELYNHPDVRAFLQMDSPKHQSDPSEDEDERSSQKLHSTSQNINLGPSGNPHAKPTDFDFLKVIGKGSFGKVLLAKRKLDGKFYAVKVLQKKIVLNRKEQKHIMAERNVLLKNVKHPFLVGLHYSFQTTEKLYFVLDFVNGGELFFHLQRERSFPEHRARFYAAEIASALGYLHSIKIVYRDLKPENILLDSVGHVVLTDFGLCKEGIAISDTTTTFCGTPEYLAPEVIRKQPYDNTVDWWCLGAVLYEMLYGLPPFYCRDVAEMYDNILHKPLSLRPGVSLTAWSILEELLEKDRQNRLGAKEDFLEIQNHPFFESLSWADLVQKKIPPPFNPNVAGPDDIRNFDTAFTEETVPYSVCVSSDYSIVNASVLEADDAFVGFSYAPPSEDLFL
Sequence of UniProt P03372 (whole entry, looked up): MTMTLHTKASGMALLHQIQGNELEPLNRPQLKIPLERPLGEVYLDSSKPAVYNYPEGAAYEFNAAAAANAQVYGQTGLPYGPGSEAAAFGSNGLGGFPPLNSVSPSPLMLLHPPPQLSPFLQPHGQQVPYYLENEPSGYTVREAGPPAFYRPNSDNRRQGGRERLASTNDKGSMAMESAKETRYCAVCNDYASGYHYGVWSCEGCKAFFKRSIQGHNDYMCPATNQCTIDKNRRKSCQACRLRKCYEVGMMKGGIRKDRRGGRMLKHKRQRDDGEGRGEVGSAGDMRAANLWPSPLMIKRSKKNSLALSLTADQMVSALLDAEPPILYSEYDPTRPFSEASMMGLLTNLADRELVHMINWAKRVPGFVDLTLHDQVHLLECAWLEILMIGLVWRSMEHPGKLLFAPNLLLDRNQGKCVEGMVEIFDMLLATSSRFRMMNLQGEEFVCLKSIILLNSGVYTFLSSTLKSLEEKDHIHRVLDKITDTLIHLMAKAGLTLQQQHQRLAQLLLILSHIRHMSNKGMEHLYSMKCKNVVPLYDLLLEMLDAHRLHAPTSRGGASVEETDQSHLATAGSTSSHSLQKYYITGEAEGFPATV
Sequence of UniProt P51957 (whole entry, looked up): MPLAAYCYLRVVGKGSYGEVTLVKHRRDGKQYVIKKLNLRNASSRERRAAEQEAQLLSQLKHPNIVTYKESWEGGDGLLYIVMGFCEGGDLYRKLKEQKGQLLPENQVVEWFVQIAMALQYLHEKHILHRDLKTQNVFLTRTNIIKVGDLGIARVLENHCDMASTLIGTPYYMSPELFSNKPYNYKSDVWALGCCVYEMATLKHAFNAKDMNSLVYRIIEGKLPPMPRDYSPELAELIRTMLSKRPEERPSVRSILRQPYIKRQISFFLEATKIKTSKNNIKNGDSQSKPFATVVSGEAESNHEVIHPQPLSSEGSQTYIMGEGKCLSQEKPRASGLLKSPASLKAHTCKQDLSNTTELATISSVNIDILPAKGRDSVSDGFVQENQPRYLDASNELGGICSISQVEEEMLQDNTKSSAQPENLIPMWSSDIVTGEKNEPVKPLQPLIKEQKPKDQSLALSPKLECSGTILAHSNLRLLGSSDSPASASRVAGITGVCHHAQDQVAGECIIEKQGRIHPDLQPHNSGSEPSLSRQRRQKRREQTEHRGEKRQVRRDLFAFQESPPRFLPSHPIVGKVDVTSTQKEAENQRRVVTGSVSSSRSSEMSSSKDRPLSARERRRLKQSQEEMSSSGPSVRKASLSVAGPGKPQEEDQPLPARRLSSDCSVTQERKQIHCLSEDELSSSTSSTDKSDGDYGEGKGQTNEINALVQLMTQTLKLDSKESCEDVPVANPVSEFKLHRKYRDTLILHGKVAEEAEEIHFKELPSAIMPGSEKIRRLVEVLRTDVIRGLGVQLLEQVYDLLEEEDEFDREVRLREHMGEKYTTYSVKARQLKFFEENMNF
Sequence of UniProt P27338 (whole entry, looked up): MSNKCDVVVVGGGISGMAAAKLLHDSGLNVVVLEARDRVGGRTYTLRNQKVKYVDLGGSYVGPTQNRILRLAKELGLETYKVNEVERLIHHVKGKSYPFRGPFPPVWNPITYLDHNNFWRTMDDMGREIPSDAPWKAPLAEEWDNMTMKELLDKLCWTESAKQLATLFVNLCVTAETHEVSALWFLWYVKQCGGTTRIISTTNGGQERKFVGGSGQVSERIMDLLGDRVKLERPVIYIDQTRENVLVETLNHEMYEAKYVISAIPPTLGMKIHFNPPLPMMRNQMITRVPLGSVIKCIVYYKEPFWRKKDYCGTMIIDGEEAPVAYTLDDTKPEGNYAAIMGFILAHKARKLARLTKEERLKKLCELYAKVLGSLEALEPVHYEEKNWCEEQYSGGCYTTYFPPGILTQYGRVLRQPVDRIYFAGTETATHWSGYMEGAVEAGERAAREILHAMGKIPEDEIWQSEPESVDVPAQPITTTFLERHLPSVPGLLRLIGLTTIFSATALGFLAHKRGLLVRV

SMILES | target | test | system | conditions | inhibition
C[n+]1cn([C@@H]2O[C@H](COP(=O)(O)NP(=O)([O-])OP(=O)(O)O)[C@@H](O)[C@H]2O)c2nc(N)nc(O)c21 | dcp2 with Dcp1 |  |  | 200 µM, 0.25 h | 17.2%
C[C@@H]1NC(=O)[C@H](CCCNC(=N)N)NC(=O)[C@H](Cc2ccc3ccccc3c2)NC(=O)[C@H]2CCCCN2C(=O)[C@@H]([C@H](C)O)NC(=O)[C@H](Cc2ccc(F)cc2)NC(=O)[C@@H](Cc2ccc(F)cc2)NC(=O)c2cc3cc(c2)C(=O)NC[C@H](NC(=O)[C@@H](Cc2ccccc2)NC1=O)C(=O)N[C@@H](Cc1ccccc1)C(=O)N[C@@H](Cc1ccc2ccccc2c1)C(=O)N[C@@H](CCCNC(=N)N)C(=O)N[C@@H](CCCNC(=N)N)C(=O)N[C@@H](CCCNC(=N)N)C(=O)N[C@@H](CCCNC(=N)N)C(=O)N[C@H](C(=O)N[C@@H](CCCCN)C(N)=O)CNC3=O | Peptidyl-prolyl cis-trans isomerase NIMA-interacting 4 (Homo sapiens, UniProt Q9Y237) | enzyme activity, inhibitor |  | 5 µM | ~15%
C[C@H](NCc1ccc(-c2ccc(C(F)(F)F)cc2)cc1)C(N)=O | PIK3CA (Homo sapiens, UniProt P42336) | cell-free assay, competition with immobilised ligand |  | 1 µM | 0%
COc1ccc(F)cc1S(=O)(=O)Nc1cnc2c(c1)C(=O)NCCO2 | MAOB (Homo sapiens, UniProt P27338) | enzyme activity, inhibitor |  | 10 µM | -7%
CS(C)(=O)=Nc1ccc(-c2ccc(-c3nc4cc(O[C@@H]5CO[C@H]6[C@@H]5OC[C@H]6O)[nH]c4cc3F)cc2)cc1 | SRPK2 (Homo sapiens, UniProt P78362) | enzyme activity, inhibitor |  | 10 µM | 6%
CN(/N=C/c1ccccc1C(=O)O)c1nc(-c2ccccc2Cl)cs1 | FYN isoform b | enzyme activity |  | 1 µM | -9.24%
O=S(=O)(F)CCc1cn(-c2c(F)cccc2F)nn1 | ache | Ellman |  | 20 µM | 6.3 ± 2.8%
CN(C)[C@H]1C[C@@]23CC[C@@]4(O2)C(=CC[C@]2(C)[C@@H](c5ccc6ccncc6c5)CC[C@H]24)C=C3[C@@H](O)[C@@H]1O | CDK16 (Homo sapiens, UniProt Q00536) | ATP probe labelling, inhibitor, KiNativ profiling |  | 0.1 µM | -5.3%
CC(C)[C@H]1NC(=O)C[C@H]2/C=C/CCSSC[C@@H](NC1=O)C(=O)N[C@H](Cc1cccc3ccccc13)C(=O)NCC(=O)O2 | SGK3 (Homo sapiens, UniProt Q96BR1) | enzyme activity, inhibitor |  | 10 µM | 6.3%
N[C@H](C(=O)N1CCCC1)C1CCN(c2nccc3c(-c4ncc(Cl)cc4Cl)cccc23)CC1 | PADI3 (Homo sapiens, UniProt Q9ULW8) | enzyme activity, inhibitor |  | 6.291 nM | 8.3% and 1.92%
CCc1nnc(-c2c(OC)cc(-c3cnc4cc(-c5cnn(C)c5)ccn34)cc2OC)o1 | CHRM1 (Homo sapiens, UniProt P11229) | antagonist radioligand, radioligand binding |  | 10 µM, SafetyScreen44 M1 | 4%
CCCCNC(=O)c1ccc2nc(CC)c(N(C)Cc3ccc(OC)cc3)n2c1 | ache | enzyme activity, inhibitor, Ellman |  | 5 µM | 63.4%
O=C(NC1CCN(c2ncnc3[nH]cnc23)CC1)c1cccc(NS(=O)(=O)c2ccc(C(F)(F)F)cc2)c1 | RNMT (Homo sapiens, UniProt O43148) | enzyme activity, inhibitor |  | concentration not given | no inhibition
CC(C)(C)c1cc2oc3c(c2c(/C=N/NC(=O)c2ccc(O)cc2O)c1O)CCCC3 | PDE6D (Homo sapiens, UniProt O43924) | enzyme activity, inhibitor |  | 5 µM | 35.4%
C[n+]1cn([C@@H]2O[C@H](COP(=O)([S-])OP(=O)(O)CP(=O)(O)OP(=O)([S-])OC[C@H]3O[C@@H](n4c[n+](C)c5c(O)nc(N)nc54)[C@H](O)[C@@H]3O)[C@@H](O)[C@H]2O)c2nc(N)nc(O)c21 (stereo partly drawn) | dcp2 with Dcp1 |  |  | 200 µM, 0.5 h | 33.1%
CN[C@@H]1[C@H](O)[C@H](NC)[C@H]2O[C@]3(O)[C@H](O[C@@H]2[C@H]1O)O[C@H](C)C[C@H]3NC(=O)Cc1cc(Cl)ccn1 | HTR3A | ligand displacement, radioligand |  | 10 µM | -15%
C=CC(=O)Nc1cc(-c2nn(C3CCC(N4CCN(C(C)=O)CC4)CC3)c3ncnc(N)c23)ccc1Oc1ccccc1 (stereo not drawn) | NEK4 (Homo sapiens, UniProt P51957) | inhibitor, KiNativ profiling | biochemical | 2 µM | 16.6%
O=C(CN1CN(c2ccccc2)C2(CCN(C(=O)c3cnc4[nH]ncc4c3)CC2)C1=O)NCC(F)(F)F | WNK1 (Homo sapiens, UniProt Q9H4A3) | inhibitor |  | concentration not given | < 50%
O=C(O)c1ccccc1/C=N/Nc1nc(-c2ccccc2Cl)cs1 | LYNb | enzyme activity |  | 1 µM | 13.8%
CCOC(=O)[C@](CC)(CCCSCCOCCOCCNC(=O)c1ccc(-c2c3ccc(=N)c(S(=O)(=O)O)c-3oc3c(S(=O)(=O)O)c(N)ccc23)c(C(=O)O)c1)NC(=O)c1ccc(C2CC2)c(Cc2ccc(F)cc2)n1 | Estrogen receptor (ESR1, Homo sapiens, UniProt P03372) | ligand displacement, radioligand |  | 10 µM | 0%
CC(C)(C)C1CCC(c2cc3ccccc3s2)(N2CCCCC2)CC1 (stereo not drawn) | ppa (Escherichia coli, UniProt P0A7A9) | inhibitor, counter-screen, coupling enzyme alone |  | 30 µM | 21.6%
OB(O)c1ccccc1-c1ccc2ccccc2c1 | Beta-lactamase (ampC, Escherichia coli K-12, UniProt P00811) | enzyme activity, inhibitor, CENTA hydrolysis absorbance |  | 10 µM | < 10%
NC1CCCCC1 | ache | enzyme activity, inhibitor, Ellman |  | 20 µM | 34.6%
C/C(=N\OCCCN1CCCCC1)c1ccc(C(F)(F)F)cc1 | HTR3A | calcium influx, antagonist, FLIPR |  | 10 µM | -0.54%
CN[C@@H]1[C@H](O)[C@H](NC)[C@H]2O[C@]3(O)[C@H](O[C@@H]2[C@H]1O)O[C@H](C)C[C@H]3NC(=O)Cc1ccc(Cl)cn1 | GABBR1 (Homo sapiens, UniProt Q9UBS5) |  |  | 10 µM | 19%
O=S(=O)(F)CCc1cn(-c2ccc(Br)cc2)nn1 | ache | Ellman |  | 20 µM | 34.2 ± 1.3%
CC(=O)NC[C@@H]1[C@@H](O)C[C@H]2[C@H](O)C[C@@H](CO)N12 | human placental β-N-acetylglucosaminidase |  |  | 0.0856 µM, run 2, added: p-nitrophenyl GlcNAc | 57.9%

Excerpt of the above:
SMILES | target | test | system | conditions | inhibition
CN(C)[C@H]1C[C@@]23CC[C@@]4(O2)C(=CC[C@]2(C)[C@@H](c5ccc6ccncc6c5)CC[C@H]24)C=C3[C@@H](O)[C@@H]1O | CDK16 (Homo sapiens, UniProt Q00536) | ATP probe labelling, inhibitor, KiNativ profiling |  | 0.1 µM | -5.3%
CC(C)[C@H]1NC(=O)C[C@H]2/C=C/CCSSC[C@@H](NC1=O)C(=O)N[C@H](Cc1cccc3ccccc13)C(=O)NCC(=O)O2 | SGK3 (Homo sapiens, UniProt Q96BR1) | enzyme activity, inhibitor |  | 10 µM | 6.3%
N[C@H](C(=O)N1CCCC1)C1CCN(c2nccc3c(-c4ncc(Cl)cc4Cl)cccc23)CC1 | PADI3 (Homo sapiens, UniProt Q9ULW8) | enzyme activity, inhibitor |  | 6.291 nM | 8.3% and 1.92%
CCc1nnc(-c2c(OC)cc(-c3cnc4cc(-c5cnn(C)c5)ccn34)cc2OC)o1 | CHRM1 (Homo sapiens, UniProt P11229) | antagonist radioligand, radioligand binding |  | 10 µM, SafetyScreen44 M1 | 4%
